Published values gathered from unrelated publications.
Each numbered part is a random draw from the data of one study; scales do not carry over between parts.

Set 1
Target: UBE2J1 UBC core domain (UniProt Q9Y385)
Method: yeast two-hybrid
Medium: yeast
Setting: mostly zero background
Reference: not given
Reading: higher = stronger interaction
Measurement: lacZ reporter activity
B1: RNF112 RING domain (UniProt Q9ULX5); chain QPMAPRELPTCSICLERLRDPISLDCGHDFCIRCFSTHRLPGCEPPCCPECRKICKQKRGLR
B2: TRIM52 RING domain (UniProt Q96A61); chain PMQTLQEEAVCAICLDYFKDPVSISCGHNFCRGCVTQLWSKEDEEDQNEEEDEWEEEEDEEAV
B3: NSMCE1 RING domain (UniProt Q8WV22); chain RETYPDAVKICNICHSLLIQGQSCETCGIRMHLPCVAKYFQSNAEPRCPHCNDYWPHEIPKV
B4: RNF5 RING domain (UniProt Q99942); chain ERGGAGATFECNICLETAREAVVSVCGHLYCWPCLHQWLETRPERQECPVCKAGISREKVVP
B5: TRIM38 RING domain (UniProt O00635); chain STKKMMEEATCSICLSLMTNPVSINCGHSYCHLCITDFFKNPSQKQLRQETFCCPQCRAPFHMDSLRP
Target sequence (chain): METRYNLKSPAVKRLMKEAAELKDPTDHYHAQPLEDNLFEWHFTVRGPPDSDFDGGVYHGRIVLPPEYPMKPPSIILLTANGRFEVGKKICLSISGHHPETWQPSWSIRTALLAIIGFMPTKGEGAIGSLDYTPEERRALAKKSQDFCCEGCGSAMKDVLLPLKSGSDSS
B1 (RNF112 RING domain): 0
ISNDSETLEECMVCSDMKRDTLFGPCGHIATCSLCSPRVKKCLICKEQVQSRTKIE (MIB1 RING domain (UniProt Q86YT6)): 0
B2 (TRIM52 RING domain): 0
B3 (NSMCE1 RING domain): 0
B4 (RNF5 RING domain): 0
B5 (TRIM38 RING domain): 0

Set 2
Target: Sal-like protein 4, full length isoform B (SALL4, Homo sapiens, UniProt Q9UJQ4-2, residues 1-616)
Method: universal PBM
Form: double-stranded DNA, one strand shown
Medium: in vitro
Concentration: not given
Setting: 8-mer, flanks averaged, mean of replicates
Reading: higher = stronger binding
Measurement: E-score
Residues (chain): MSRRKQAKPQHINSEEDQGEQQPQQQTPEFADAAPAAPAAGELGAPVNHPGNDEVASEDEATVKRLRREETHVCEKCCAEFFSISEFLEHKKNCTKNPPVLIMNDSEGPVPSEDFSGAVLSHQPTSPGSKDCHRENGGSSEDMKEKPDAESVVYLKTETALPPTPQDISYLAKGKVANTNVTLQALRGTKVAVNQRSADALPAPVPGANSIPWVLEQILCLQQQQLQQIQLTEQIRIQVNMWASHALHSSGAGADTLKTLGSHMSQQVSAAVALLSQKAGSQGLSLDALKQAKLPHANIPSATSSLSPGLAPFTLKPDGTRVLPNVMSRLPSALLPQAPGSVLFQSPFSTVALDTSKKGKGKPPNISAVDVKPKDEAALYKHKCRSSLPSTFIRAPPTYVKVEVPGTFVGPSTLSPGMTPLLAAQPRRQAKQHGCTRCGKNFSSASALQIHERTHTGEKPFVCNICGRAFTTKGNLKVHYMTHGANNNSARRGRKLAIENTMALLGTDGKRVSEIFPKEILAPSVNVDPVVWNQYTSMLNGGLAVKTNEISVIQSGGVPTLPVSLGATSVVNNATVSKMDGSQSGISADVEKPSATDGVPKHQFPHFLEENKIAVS
CGCTATCC: -0.0727
CTCAATAC: 0.175
AATACGGT: 0.0546
GTCACTAA: 0.108
AGTTACAC: 0.101
CTGTTAGA: -0.0678
GGAAGGTA: 0.0604
GCTCGGTA: -0.0442
GCGTTCCC: -0.103
TGCATGAA: 0.136

Set 3
Target: Max-binding protein MNT, bHLH-zipper, MAX partner unstated (MNT, Homo sapiens, UniProt Q99583, residues 220-300)
Method: protein-binding microarray
Form: double-stranded DNA, one strand shown
Medium: in vitro
Concentration: not given
Setting: k-mer, scored over probes, only values ≥0.25
Reading: higher = stronger binding
Measurement: E-score
Residues (chain): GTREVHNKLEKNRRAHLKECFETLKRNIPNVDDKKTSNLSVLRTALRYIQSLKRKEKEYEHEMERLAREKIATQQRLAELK
CACCCATG: 0.37
GTGGCGCA: 0.325
AATATGGC: 0.293
GACCCACC: 0.265
CCCCTACC: 0.263
GTCCCACA: 0.264
CACACGAG: 0.401
CCTCCTCC: 0.258
CCCATGGC: 0.252
AAGCATGT: 0.409
CACGCAGG: 0.286
AGAACACG: 0.399
ACGTGTCA: 0.425
CGTGTCAG: 0.327
CCCTCACC: 0.27
AACCACGC: 0.411
AGCATGTA: 0.356
CCTTCCAC: 0.271

Set 4
Target: Fragile X messenger ribonucleoprotein 1, C-terminal low-complexity region (Fmr1, Mus musculus, UniProt P35922)
Method: RNA Bind-n-Seq
Form: RNA
Medium: in vitro
Concentration: 200 nM
Setting: whole 134-nt RNA, ends assumed
With: 150 mM KCl
Reference: input library
Reading: higher = stronger binding
Measurement: log2 enrichment
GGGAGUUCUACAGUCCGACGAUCCCUGUGCUACACAUCGUAUGUACCGAAUCGGGAAAAAAAGGGAAAAAGGGUUUUUUUGGGAAAGUAUUAUGUUACGCCGUUCGGAUCUGCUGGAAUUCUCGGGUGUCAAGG: -0.765
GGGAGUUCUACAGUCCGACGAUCCUCAAGUCCUGUGCUACACAUCGUAUGUACCGAAUCGGGGAAGGAAGGGAAGGAAAGUAUUAUGUUACGCCGUUCGGAUCUGCACUUCCAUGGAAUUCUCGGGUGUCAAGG: 0.0228
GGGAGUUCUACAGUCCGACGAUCCACAGACAACACGCACCCACACAGACACAGAGGGAAGGGGUUGGGAUGGGGACAGGGUGCACAGCAGGGCGGGGUAGGACCCCAGCCCCCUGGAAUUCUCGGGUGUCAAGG: 1.32
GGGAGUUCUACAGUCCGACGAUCGCAGGAAGUAAAAACAAAUGGAAAUGCUUCGGAUAGAGGCAGGGGUGGGGGUUGCUAAGGAAAGGGUGGGAUGGGAGUGGGUAAAGAGUUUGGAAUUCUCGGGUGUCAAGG: 0.697
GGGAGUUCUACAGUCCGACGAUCGUCCUGUGCUACACAUCGUAUGUACCGAAUCGGGGUUUUGGGGUUUUGGGGUUUUGGGGAAAGUAUUAUGUUACGCCGUUCGGAUCUGCAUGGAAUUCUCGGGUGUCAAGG: 0.614
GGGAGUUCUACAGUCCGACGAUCUCCUCAAGUCCUGUGCUACACAUCGUAUGUACCGAAUCGGAGGGGAGGAGGGAAAGUAUUAUGUUACGCCGUUCGGAUCUGCACUUCCAGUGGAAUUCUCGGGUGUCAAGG: 0.301
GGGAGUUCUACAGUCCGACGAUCUGGGAGGUGGAUUUUGUUUAUUUUUUUAGCUCAUUUCCAGGUGUGGGAAUUUUUUUUUAAUAUGUGUCAUGAAUAAAGUUGUUUUUGAAAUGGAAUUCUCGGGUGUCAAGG: -0.0794
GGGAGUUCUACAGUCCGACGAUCGCAGGAAGUAAAAACAAAUGGAAAUGCUUCGGAUAGUGGCAGGGGUGGGCGUUGCUAAGGAAAGGGUGGGAUGGGAGUGGGUAAAGAGUUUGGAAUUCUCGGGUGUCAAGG: -0.062
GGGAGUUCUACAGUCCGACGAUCACCAUGCAGGUGGGCAUCUUUGGGAAGUGGGGCAAGGGGGGGAUAGGGAGGGCGGUAACACUUUGGGAACAGGUGGUCCCAGGUCGUUUCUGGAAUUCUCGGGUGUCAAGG: 0.866

Repeated from above (set 3):
CCCCTACC: 0.263
GTCCCACA: 0.264
CACACGAG: 0.401
CCTCCTCC: 0.258
CCCATGGC: 0.252
AAGCATGT: 0.409
